Measurements pooled from the literature.
Each line is one published result; not all experiments were run side by side. ± gives the spread as reported.

CSc1ccc(C(=O)/C=C/c2cc(C)c(OC(C)(C)C(=O)O)c(C)c2)cc1 gave a dose of ≥ 3 mg/kg (hepatic PPAR target gene induction; Sprague Dawley rats, diet-induced dyslipidemia, liver; with: ACC inhibitor).
CC(=O)Nc1cccc(OCc2nnc(SCc3ccc(F)cc3)o2)c1: “immobility duration decrease” 47.5% (forced swimming test; mice; 40 mg/kg, 0.5 h; reference: control).
CC1(C)CCC(c2ccc(Cl)cc2)=C(CN2CCN(c3ccc(C(=O)NS(=O)(=O)c4ccc(N[C@H](CCN5CCOCC5)CSc5ccccc5)c(S(=O)(=O)C(F)(F)F)c4)cc3)CC2)C1 has an EC50 of > 5 µM (cell kill, PI exclusion flow cytometry; CD21+ nodal neoplastic cells, human).
C=CC(=O)N1CCC[C@@H](n2nc(-c3ccc(Oc4ccccc4)cc3)c3c(N)ncnc32)C1: platelet adhesion “no effect” (human platelets, collagen, arterial shear flow; 70 nM; reference: vehicle).
`insulin detemir` gave a HbA1c of 4.45 ± 0.04% (female Sprague-Dawley rat, blood; sc, 15 U/kg, 6 weeks).
Under “time to heme-positive stool”, CCOc1nc2cccc(C(=O)O)c2n1Cc1ccc(-c2ccccc2-c2nn[nH]n2)cc1 is recorded as 8 days (mouse DSS colitis; transanal, 10 mg/kg/day).
`neuropeptide Y`: “heart rate response resolution time” 18.5 ± 4 min (Sprague Dawley rat, urethane-anaesthetised; iv, 5 nmol).
CC(C)n1cnc(-c2ccc(F)cc2)c1-c1ncc(C(=O)Nc2ccc(N3CCN(C)CC3)cc2)[nH]1 — result for “differentially abundant proteins”: 22 (Olink proteomics; IPF patients, serum; 60 mg once daily, adjusted p below 0.05, unit not given; reference: placebo).
With CCOC(=O)[C@H](C)C[C@@H](Cc1ccc(-c2ccccc2)cc1)NC(=O)CCC(=O)O the urea iAUC was 737 ± 190 mmol·min/L (female C57BL/6JRj mice; oral, 0.7 nmol/g, with: amino acids 34 mg oral).
For O=C(/C=C/c1ccc(O)c(O)c1)O[C@H](Cc1ccc(O)c(O)c1)C(=O)O, “FRAP antioxidant capacity” read 1260 ± 4.5 (FRAP; unit not given; reference: Trolox).
For CC(C)NCCCC[C@H](NC(=O)[C@H]1CCC(=O)N[C@@H](Cc2ccccc2)C(=O)N[C@@H](Cc2ccc(O)cc2)C(=O)N[C@@H](CCCCNC(C)C)C(=O)N[C@H](CCCNC(=N)N)C(=O)N[C@@H](Cc2ccc3ccccc3c2)C(=O)NCC(=O)N1)C(N)=O, “maximum CD34+ cell count” read 24.5 fold (metastatic renal cell carcinoma patients; subcutaneous, 20 mg/day, second cycle, with: sunitinib; reference: baseline).
With `Polymyxin B` the TNF-α release was 2.1 ± 0.7% (human whole blood; 500 ng/mL, 4 h, 37 °C, with: E. coli LPS 0.5 ng/mL; reference: LPS without compound).
Under “immobility duration decrease”, CC(=O)Nc1cccc(OCc2nnc(SCc3ccc(C(F)(F)F)cc3)o2)c1 is recorded as 52.3% (forced swimming test; mice; 40 mg/kg, 0.5 h; reference: control).
CCCCCCCCCCCCCCCC(=O)NCCCC[C@H](NC(=O)[C@H](CCC(=O)O)NC(=O)[C@H](CCC(=O)O)NC(=O)[C@H](Cc1ccc(O)cc1)NC(=O)[C@H](CCC(=O)O)NC(=O)CCCCCNC(=S)Nc1ccc2c(c1)C(=O)OC21c2ccc(O)cc2Oc2cc(O)ccc21)C(=O)N[C@@H](Cc1ccc(O)cc1)C(=O)N[C@@H](CCC(=O)O)C(=O)NCC(=O)NCC(=O)NCC(=O)NCC(=O)N[C@@H](CO)C(=O)NCC(=O)NCC(=O)NCC(=O)NCC(=O)N[C@@H](CO)C(=O)N[C@@H](Cc1ccccc1)C(=O)N[C@@H](CC(N)=O)C(=O)N1CCC[C@H]1C(=O)N[C@@H](CCCNC(=N)N)C(=O)N[C@@H](Cc1c[nH]cn1)C(=O)NC(C)(C)C(=O)N[C@@H](CCC(=O)O)C(=O)NCC(=O)N[C@H](C(=O)N[C@@H](Cc1ccccc1)C(=O)N[C@H](C(=O)N[C@@H](CO)C(=O)N[C@@H](CC(=O)O)C(=O)N[C@H](C(=O)N[C@@H](CO)C(=O)N[C@@H](CO)C(=O)N[C@@H](Cc1ccc(O)cc1)C(=O)N[C@@H](CC(C)C)C(=O)N[C@@H](CCC(=O)O)C(=O)NCC(=O)N[C@@H](CCC(N)=O)C(=O)N[C@@H](C)C(=O)N[C@@H](C)C(=O)N[C@@H](CCCCN)C(=O)N[C@@H](CCC(=O)O)C(=O)N[C@@H](Cc1ccccc1)C(=O)N[C@H](C(=O)N[C@@H](C)C(=O)N[C@@H](Cc1c[nH]c2ccccc12)C(=O)N[C@@H](CC(C)C)C(=O)N[C@H](C(=O)N[C@@H](CCCCN)C(=O)NCC(=O)N[C@@H](CCCNC(=N)N)C(=O)NCC(=O)O)C(C)C)[C@@H](C)CC)C(C)C)[C@@H](C)O)[C@@H](C)O gave a glucose reduction of 62.7% (db/db mouse; subcutaneous, 150 nmol/kg, 0.5 h before glucose, AUC 0-120 min, with: oral glucose 2.0 g/kg; reference: saline).
With COc1ccc2c(c1)c(CC(=O)O)c(C)n2C(=O)c1ccc(Cl)cc1 the cytokine level was 978 ± 479 pg/mL (multiplex bead immunoassay, item: KC; CD-1 mice, serum; ip, 20 mg/kg, three-injection regimen, with: LPS 3 mg/kg).
CCCOc1ccc(S(=O)(=O)NCCC2CCCN2C)cc1-c1nc2c(CCC)nn(C)c2c(=O)[nH]1 (stereo not drawn) gave a maximal VO2 of 27.1 ± 5 mL/min/kg (ramp cycle exercise test; human adolescents after Fontan palliation; oral, 87.5 mg once daily, day 5).
`VQWRAIRVRVIR` gave a leakage of 8% (carboxyfluorescein release; peptide, EYPG vesicles; 10 µg/mL, 250 s, pH 7.4, 25 °C; reference: Triton X-100).
CCOC(=O)c1sc(NN=C2c3ccccc3-c3nc4cc(F)ccc4nc32)nc1C gave a blood glucose of 322 ± 35.5 mg/dL (mouse, STZ-induced diabetes; oral, 25 mg/kg, day 3).
CC(C)C[C@H](NC(=O)[C@H](CO)NC(=O)[C@H](CCCNC(=N)N)NC(=O)[C@H](CC(=O)O)NC(=O)[C@H](CCC(=O)O)NC(=O)[C@H](C)NC(=O)[C@@H]1CCCN1C(=O)[C@H](C)NC(=O)[C@H](CCC(=O)O)NC(=O)[C@@H]1CCCN1C(=O)[C@@H]1CCCN1)C(N)=O gave a dopamine level of 815 ± 83 ng/g (HPLC-EC; F344 rat, normal, substantia nigra; intranasal, 300 µg, 5 days/week, 3 weeks).
CCC1SC(NN=C2c3ccccc3-c3nc4cc(F)ccc4nc32)=NC1=O (stereo not drawn) gave a blood glucose of 313 ± 23.8 mg/dL (mouse, STZ-induced diabetes; oral, 25 mg/kg, day 3).
For `ILPWKWPWWPWRR`, the leakage was 37% (carboxyfluorescein release; peptide, EYPC vesicles; 10 µg/mL, 250 s, pH 7.4, 25 °C; reference: Triton X-100).
For CC(=O)Nc1cccc(OCc2nnc(SCc3ccccc3)o2)c1, “immobility duration decrease” read 39.6% (forced swimming test; mice; 40 mg/kg, 0.5 h; reference: control).
`Neuropeptide Y` — result for “Col1a1 mRNA level”: “decreased” (Nep−/− mouse, bile duct ligation, liver; dose not given; reference: control injection).
With CS/C(S)=N/CCCC[S+](C)[O-] (racemic) the mRNA level was 9.85 fold (item: Alad; rat, mammary gland; oral gavage, 200 mg/kg, 4 days daily; reference: vehicle).
CC12CCC(CC1)C(C)(C)O2: “proportion of food consumed” 96 ± 0.03% (two-choice feeding trial; Sylvilagus nuttallii; 1% dry weight in diet, 72 h, with: monoterpene mixture 1% dry weight).
O=C(/C=C(/C=C/c1cccnc1)NCCO)/C=C/c1cccnc1 gave an EC50 of > 200 µM (DPPH scavenging).
For CC(C)(Sc1ccncc1-c1ccc(C#N)c2ccccc12)C(=O)O, “fractional uric acid excretion” read 77.4% (male gout patients, urine; 300 mg, 0 to 24 h, with: verinurad 10 mg alone or combined; reference: baseline).
C[C@H]1C[C@H]2CSC(N)=N[C@@]2(c2nc(NC(=O)c3ccc(OC(F)F)cn3)cs2)CO1: “change from baseline” -83.4% (item: CSF sAPPβ; healthy adults; 275 mg once daily, 14 days, day 15; reference: placebo-adjusted baseline).
CCCC(CCC)C(=O)O: “GTCS with tonic hindlimb extension” “decreased” (Scn1a+/- mouse, hyperthermia-primed; oral in chow, dose not given; reference: untreated).
Under “ICP increase AUC”, CC(C)[C@H](NC(=O)[C@@H]1CSSC[C@H](NC(=O)[C@H](CC(=O)O)NC(=O)[C@@H]2CCCN2C(=O)[C@@H](NC(=O)[C@@H](N)CCC(=O)O)[C@@H](C)O)C(=O)N[C@@H](Cc2ccccc2)C(=O)N[C@@H](Cc2c[nH]c3ccccc23)C(=O)N[C@@H](CCCCN)C(=O)N[C@@H](Cc2ccc(O)cc2)C(=O)N1)C(=O)O is recorded as 65.8 ± 3.7 mmHg·s (male Wistar rats, anaesthetised; intracavernous, 0.3 nmol per rat).

A few entries again:
CCCCCCCCCCCCCCCC(=O)NCCCC[C@H](NC(=O)[C@H](CCC(=O)O)NC(=O)[C@H](CCC(=O)O)NC(=O)[C@H](Cc1ccc(O)cc1)NC(=O)[C@H](CCC(=O)O)NC(=O)CCCCCNC(=S)Nc1ccc2c(c1)C(=O)OC21c2ccc(O)cc2Oc2cc(O)ccc21)C(=O)N[C@@H](Cc1ccc(O)cc1)C(=O)N[C@@H](CCC(=O)O)C(=O)NCC(=O)NCC(=O)NCC(=O)NCC(=O)N[C@@H](CO)C(=O)NCC(=O)NCC(=O)NCC(=O)NCC(=O)N[C@@H](CO)C(=O)N[C@@H](Cc1ccccc1)C(=O)N[C@@H](CC(N)=O)C(=O)N1CCC[C@H]1C(=O)N[C@@H](CCCNC(=N)N)C(=O)N[C@@H](Cc1c[nH]cn1)C(=O)NC(C)(C)C(=O)N[C@@H](CCC(=O)O)C(=O)NCC(=O)N[C@H](C(=O)N[C@@H](Cc1ccccc1)C(=O)N[C@H](C(=O)N[C@@H](CO)C(=O)N[C@@H](CC(=O)O)C(=O)N[C@H](C(=O)N[C@@H](CO)C(=O)N[C@@H](CO)C(=O)N[C@@H](Cc1ccc(O)cc1)C(=O)N[C@@H](CC(C)C)C(=O)N[C@@H](CCC(=O)O)C(=O)NCC(=O)N[C@@H](CCC(N)=O)C(=O)N[C@@H](C)C(=O)N[C@@H](C)C(=O)N[C@@H](CCCCN)C(=O)N[C@@H](CCC(=O)O)C(=O)N[C@@H](Cc1ccccc1)C(=O)N[C@H](C(=O)N[C@@H](C)C(=O)N[C@@H](Cc1c[nH]c2ccccc12)C(=O)N[C@@H](CC(C)C)C(=O)N[C@H](C(=O)N[C@@H](CCCCN)C(=O)NCC(=O)N[C@@H](CCCNC(=N)N)C(=O)NCC(=O)O)C(C)C)[C@@H](C)CC)C(C)C)[C@@H](C)O)[C@@H](C)O gave a glucose reduction of 62.7% (db/db mouse; subcutaneous, 150 nmol/kg, 0.5 h before glucose, AUC 0-120 min, with: oral glucose 2.0 g/kg; reference: saline).
For CC(C)(Sc1ccncc1-c1ccc(C#N)c2ccccc12)C(=O)O, “fractional uric acid excretion” read 77.4% (male gout patients, urine; 300 mg, 0 to 24 h, with: verinurad 10 mg alone or combined; reference: baseline).
C=CC(=O)N1CCC[C@@H](n2nc(-c3ccc(Oc4ccccc4)cc3)c3c(N)ncnc32)C1: platelet adhesion “no effect” (human platelets, collagen, arterial shear flow; 70 nM; reference: vehicle).
With CS/C(S)=N/CCCC[S+](C)[O-] (racemic) the mRNA level was 9.85 fold (item: Alad; rat, mammary gland; oral gavage, 200 mg/kg, 4 days daily; reference: vehicle).
